Assay results pooled from the literature.
Lines come from different studies, so protocols differ.
UniProt Q16891, sequence (whole entry, looked up): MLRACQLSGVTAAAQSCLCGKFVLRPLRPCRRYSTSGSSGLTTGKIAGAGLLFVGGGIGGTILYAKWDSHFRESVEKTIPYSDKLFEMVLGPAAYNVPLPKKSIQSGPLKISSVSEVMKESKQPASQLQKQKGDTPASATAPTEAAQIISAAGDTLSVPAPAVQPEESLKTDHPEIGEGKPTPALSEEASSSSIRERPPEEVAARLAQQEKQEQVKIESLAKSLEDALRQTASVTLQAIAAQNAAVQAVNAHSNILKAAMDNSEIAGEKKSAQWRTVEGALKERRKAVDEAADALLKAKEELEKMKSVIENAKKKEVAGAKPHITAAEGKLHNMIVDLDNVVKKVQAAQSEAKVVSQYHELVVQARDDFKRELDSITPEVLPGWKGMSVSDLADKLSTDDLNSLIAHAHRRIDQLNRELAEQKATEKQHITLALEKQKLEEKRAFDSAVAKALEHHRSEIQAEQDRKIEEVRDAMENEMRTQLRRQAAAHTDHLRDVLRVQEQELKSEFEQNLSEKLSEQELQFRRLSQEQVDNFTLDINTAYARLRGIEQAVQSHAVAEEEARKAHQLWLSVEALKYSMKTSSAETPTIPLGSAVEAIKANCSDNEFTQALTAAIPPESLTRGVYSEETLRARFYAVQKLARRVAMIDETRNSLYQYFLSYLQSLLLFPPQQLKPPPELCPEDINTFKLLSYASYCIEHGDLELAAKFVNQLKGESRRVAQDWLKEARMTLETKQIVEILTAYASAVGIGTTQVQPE
UniProt P35414, sequence (whole entry, looked up): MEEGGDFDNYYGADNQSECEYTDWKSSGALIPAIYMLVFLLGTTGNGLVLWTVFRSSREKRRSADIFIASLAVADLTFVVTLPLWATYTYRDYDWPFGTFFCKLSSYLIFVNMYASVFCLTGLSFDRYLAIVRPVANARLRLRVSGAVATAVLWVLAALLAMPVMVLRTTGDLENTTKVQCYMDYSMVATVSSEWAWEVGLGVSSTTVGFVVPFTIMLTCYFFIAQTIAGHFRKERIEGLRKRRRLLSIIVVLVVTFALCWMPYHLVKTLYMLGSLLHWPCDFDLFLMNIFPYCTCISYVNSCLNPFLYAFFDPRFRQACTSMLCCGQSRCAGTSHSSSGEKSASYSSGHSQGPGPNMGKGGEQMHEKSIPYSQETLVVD

C[C@H]1CN(c2n[nH]c3nc(N[C@H]4CC[C@H](NS(=O)(=O)CCC(F)(F)F)CC4)ncc23)CCO1 gave a remaining binding of 1.1 (MICOS complex subunit MIC60 (Homo sapiens, UniProt Q16891); Kinobeads competition, measured: IMMT; 0.8 µM, unit not given; relative to: vehicle).
The AUC(0-t) of Nc1ccc2cc3ccc(N)cc3nc2c1 is reported as 545 ng·h/mL (male CD-1 mouse, plasma; oral, 100 mg/kg).
For CO[C@H]1C[C@@H]2CC[C@@H](C)[C@@](O)(O2)C(=O)C(=O)N2CCCC[C@H]2C(=O)O[C@H]([C@H](C)C[C@@H]2CC[C@@H](OC(=O)NCCOCCOCCOCCOCCOCCOCCOCCOCCC(=O)N3CCc4cc(Cn5nc(-c6ccc7oc(N)nc7c6)c6c(N)ncnc65)ccc4C3)[C@H](OC)C2)C[C@@H](O)[C@H](C)/C=C(\C)[C@@H](O)[C@@H](OC)C(=O)[C@H](C)C[C@H](C)/C=C/C=C/C=C/1C, “decreased appetite leading to dose reduction” read 0% (dose-escalation trial; patients with advanced solid tumours; intravenous, 1.6 mg/3 mg weekly, any grade).
For CC(=O)c1c(C)c2cnc(Nc3ccc(C4CCN(CCS(C)(=O)=O)CC4)cn3)nc2n(C2CCCC2)c1=O, the AUC(0-t) was 1030 ng·h/mL (human, dose-escalation trial, plasma; oral, 25 mg twice daily, day 21, multiple doses).
For COc1cccc2c1CCCC2CCCN1CCN(C2CCCCC2)CC1 (stereo not shown), the AUC(0-t) was 228 ng·h/mL (CD-1 mouse, male, plasma; intraperitoneal, 10 mg/kg).
The AUC(0-t) of O=c1c2cc(Cl)c(CO)cc2[nH]c(=S)n1Cc1cncnc1 is reported as 147 ng·h/mL (mouse; oral, 3.98 mg/kg).
With CN[C@H]1CC[C@@H](c2ccc(Cl)c(Cl)c2)c2ccccc21 the AUC(0-t) was 685 ng·h/mL (CD-1 mouse, male, plasma; intraperitoneal, 10 mg/kg).
COc1cc(Nc2ncc(F)c(Nc3ccc4c(n3)NC(=O)C(C)(C)O4)n2)cc(OC)c1OC gave an IC50 of greater than 10 µM (Apelin receptor (APLNR, Homo sapiens, UniProt P35414)).
For C=CC[N+]1([C@H]2C[C@H]3[C@@H]4CC[C@H]5C[C@H](O)[C@@H](N6CCOCC6)C[C@]5(C)[C@H]4CC[C@]3(C)[C@H]2OC(C)=O)CCCC1, the AUC(0-t) was 32.9 ng·h/mL (Sprague Dawley rat, plasma; intravenous, dose not given, with: sugammadex 5 mg/kg).
CC[C@H](C)[C@H](NC(=O)[C@H](Cc1ccccc1)NC(=O)[C@H](CCC(=O)O)NC(=O)[C@H](CCCNC(=N)N)NC(=O)[C@H](C)NC(=O)[C@H](C)NC(=O)[C@H](CCC(N)=O)NC(=O)[C@H](CCC(=O)O)NC(=O)[C@H](CCC(=O)O)NC(=O)[C@H](CC(C)C)NC(=O)[C@H](Cc1ccc(O)cc1)NC(=O)[C@H](CO)NC(=O)[C@H](CO)NC(=O)[C@@H](NC(=O)[C@H](CC(=O)O)NC(=O)[C@H](CO)NC(=O)[C@@H](NC(=O)[C@H](Cc1ccccc1)NC(=O)[C@@H](NC(=O)CNC(=O)[C@H](CCC(=O)O)NC(=O)[C@H](C)NC(=O)CCc1c[nH]cn1)[C@@H](C)O)[C@@H](C)O)C(C)C)C(=O)N[C@@H](C)C(=O)N[C@@H](Cc1c[nH]c2ccccc12)C(=O)N[C@@H](CC(C)C)C(=O)N[C@H](C(=O)N[C@@H](CCCNC(=N)N)C(=O)NCC(=O)N[C@@H](CCCNC(=N)N)C(=O)N[C@@H](CCCCNC(=O)COCCOCCNC(=O)COCCOCCNC(=O)CC[C@H](NC(=O)CCCCCCCCCCCCCCCCC(=O)O)C(=O)O)C(=O)NCC(=O)NCC(=O)N[C@@H](CO)C(=O)N[C@@H](CCCCNc1c(NCCCCCN(O)C(=O)CCC(=O)NCCCCCN(O)C(=O)CCC(=O)NCCCCCN(O)C(C)=O)c(=O)c1=O)C(=O)O)C(C)C [zirconium-89 labelled] has a tissue uptake of 0.97 %ID/g (rat, bone marrow; sc, 3 nmol/kg, 4 h, ex vivo).
NC(=O)c1cccc(-c2cc(OC(=O)NC3CCCCC3)ccc2O)c1 gave an AUC(0-t) of 4860 ng·h/mL (mouse, plasma; intravenous, 10 mg/kg, 0 to 24 h).
With Cc1ccccc1C(=O)NN=Cc1ccc(O)c(Br)c1 the AUC(0-t) was 174 ng·h/mL (C3H/HeN mouse IN model, plasma; intraperitoneal, 0.8 mg/kg).
The AUC(0-t) of COc1cc2c(cc1OC)CN(CCc1ccc(NC(=O)c3cccc4c(=O)c5cccc(OC)c5[nH]c34)cc1)CC2 is reported as 2350 ng·h/mL (CD-1 mouse, male, plasma; intraperitoneal, 3 mg/kg).

A few entries again:
The AUC(0-t) of Nc1ccc2cc3ccc(N)cc3nc2c1 is reported as 545 ng·h/mL (male CD-1 mouse, plasma; oral, 100 mg/kg).
